Published values pooled from the literature.
Protocols differ between the studies behind these lines. “And” joins repeats or separate records; there may be more than shown. ± gives the spread as reported.
U2AF2: U2AF2 148-342 (Homo sapiens, UniProt P26368)
B1: enzyme L71Q/Y136L (Bradyrhizobium diazoefficiens, UniProt Q45222); chain MIQTERAVQQVLEWGRSLTGFADEHAVEAVRGGQYILQRIHPSLRGTSARTGRDPQDETLIVTFYRELALQFWLDDCNDLGLISPEQLAAVEQALGQGVPCALPGFEGCAVLRASLATLAYDRRDYAQLLDDTRCLSAALRAGHAQAVAAERWSYAEYLHNGIDSIAYANVFCCLSLLWGLDMATLRARPAFRQVLRLISAIGRLQNDLHGCDKDRSAGEADNAVILLLQRYPAMPVVEFLNDELAGHTRMLHRVMAEERFPAPWGPLIEAMAAIRVQYYRTSTSRYRSDAVRGGQRAPA
B2: enzyme (Arabidopsis thaliana, UniProt Q9C969); chain GSFGMLSRRTLGTDMPVMAQIRSLMAELTNPMSLAQGVVHWQPPQKALEKVKELVWDPIISSYGPDEGLPELRQALLKKLREENKLTNSQVMVTAGANQAFVNLVITLCDAGDSVVMFEPYYFNSYMAFQMTGVTNIIVGPGQSDTLYPDADWLERTLSESKPTPKVVTVVNPGNPSGTYVPEPLLKRIAQICKDAGCWLIVDNTYEYFMYDGLKHCCVEGDHIVNVFSFSKTYGMMGWRLGYIAYSERLDGFATELVKIQDNIPICAAIISQRLAVYALEEGSGWITERVKSLVKNRDIVKEALEPLGKENVKGGEGAIYLWAKLPEGHRDDFKVVRWLAHRHGVVVIPGCASGSPGYLRVSFGGLQEVEMRAAAARLRKGIEELLHHGMVE
B3: enzyme (Kluyveromyces lactis, UniProt Q6CSZ6); chain MSSLDINEQRALIKSAHRYISEKLEDHFSSEFLPKALVICGSGLSGISTKIADEPKPLILSYSTIPGFKVSTVPGHSGELIFGYMNGAPVVLMNGRLHSYEGHSLAETVHPIRALHLLGSINVLIVTNAAGGINASFKAGDLMCVYDHINFPGLCGFHPLRGANFDEFGPRFLATSDAYDLELRKLLFSKKKELNIERKIHEGTYSYVHGPTFESRAESRFLRLAGTDAVGMSTVPEVVTARHCGWRVLALSLITNECVVDPPASAHDENPVPIQEGKATHEEVLENSAKASKDVQELIFSVVAEI
B4: human PABP4; sequence looked up; chain MNAAASSYPMASLYVGDLHSDVTEAMLYEKFSPAGPVLSIRVCRDMITRRSLGYAYVNFQQPADAERALDTMNFDVIKGKPIRIMWSQRDPSLRKSGVGNVFIKNLDKSIDNKALYDTFSAFGNILSCKVVCDENGSKGYAFVHFETQEAADKAIEKMNGMLLNDRKVFVGRFKSRKEREAELGAKAKEFTNVYIKNFGEEVDDESLKELFSQFGKTLSVKVMRDPNGKSKGFGFVSYEKHEDANKAVEEMNGKEISGKIIFVGRAQKKVERQAELKRKFEQLKQERISRYQGVNLYIKNLDDTIDDEKLRKEFSPFGSITSAKVMLEDGRSKGFGFVCFSSPEEATKAVTEMNGRIVGSKPLYVALAQRKEERKAHLTNQYMQRVAGMRALPANAILNQFQPAAGGYFVPAVPQAQGRPPYYTPNQLAQMRPNPRWQQGGRPQGFQGMPSAIRQSGPRPTLRHLAPTGSECPDRLAMDFGGAGAAQQGLTDSCQSGGVPTAVQNLAPRAAVAAAAPRAVAPYKYASSVRSPHPAIQPLQAPQPAVHVQGQEPLTASMLAAAPPQEQKQMLGERLFPLIQTMHSNLAGKITGMLLEIDNSELLHMLESPESLRSKVDEAVAVLQAHHAKKEAAQKVGAVAAATS
B5: enzyme S252E (Schizosaccharomyces pombe, UniProt P78804); chain MSTPYEPEFQQAYKEIVGSIESSKLFEVHPELKRVLPIISIPERVLEFRVTWEDDKGNCRVNTGYRVQFNSALGPYKGGLRFHPSVNLSILKFLGFEQIFKNALTGLPMGGGKGGSDFDPKGKSDNEIRRFSQAFMRQLFRYIGPQTDVPAGDIGVTGFVVMHMFGEYKRLRNEYSGVVTGKHMLTGGSNIRPEATGYGVVYYVKHMIEHRTKGAETLKGKRVAISGSGNVAQYAALKCIQEGAIVKSISDEKGVLIAKTAEGLVPEEIHEIMALKEKRASIADSASLCKKHHYIAGARPWTNVGEIDIALPCATQNEVSGEEAAALIKQGCRYVAEGSNMGSSAEAVEVFEKSRASGEGCWLAPGKAANAGGVAVSGLEMAQNAQFSTWTHAEVDAKLAGIMQNIFEQSTDVASKYCDSGSNNIPSLVDGANIAGFLKVATAMQAVGDWW
B6: spt (Sphingomonas paucimobilis, UniProt Q93UV0); chain TEAAAQPHALPADAPDIAPERDLLSKFDGLIAERQKLLDSGVTDPFAIVMEQVKSPTEAVIRGKDTILLGTYNYMGMTFDPDVIAAGKEALEKFGSGTNGSRMLNGTFHDHMEVEQALRDFYGTTGAIVFSTGYMANLGIISTLAGKGEYVILDADSHASIYDGCQQGNAEIVRFRHNSVEDLDKRLGRLPKEPAKLVVLEGVYSMLGDIAPLKEMVAVAKKHGAMVLVDEAHSMGFFGPNGRGVYEAQGLEGQIDFVVGTFSKSVGTVGGFVVSNHPKFEAVRLACRPYIFTASLPPSVVATATTSIRKLMTAHEKRERLWSNARALHGGLKAMGFRLGTETCDSAIVAVMLEDQEQAAMMWQALLDGGLYVNMARPPATPAGTFLLRCSICAEHTPAQIQTVLGMFQAAGRAVGVIG
B7: enzyme Y414S/Y415A (Methanosarcina mazei, UniProt Q8PVB1); chain MSEQRSVPLREHLLALKPCRHGGLIQETSETYGIPENEILDFSANFNPLGSPFDYPENGLNFEDIIKKSCGKLLEYPDNRYVEFREAAARFVGLGVTPQSIVPGNGSTEIVRLVVESVIEKGDKVLLPWPTFGEYEMQCRITGAEPVCPSQEEVNTLPDEVLEEAKILFICNPNNPTGKLRTREELKVLAERCREHKTLLYVDEAFIELSDPSQSVADLPAENNYVFVMRSLTKDFAIPGIRMGFGIAPPAMADILNTARLSWNLGAIANNTGIALLNIEGGIDSPYLKKAREMILKEGETLKAKIDRIRGFEAGEVNVNFILVDVSKFMLNSSELTARLAARGVLVRDCVSFHGLGKNYIRVAVRTEKENDRLIAAIGDVITEWGREQAKNELQHVIEKASEEGIGGRKTCESAPCHFEGQNCTFCFCPFYPCENEKTGGKWIQSSRGGRVWSCVDCHLVHKKEIAQKILDCLMHEGDTDELVKVAWKEVMEPIL
B8: enzyme K56A (Nitrosopumilus maritimus, UniProt A9A5X4); chain MDSQKFDSIIFDCDGVLVDITQSYDKTIDKTCRYVLKEFAKIDSITIDHKIIDGFASSGGFNDEVDLVYAAILSLYTANKLNKKPSEFIYDVISNTDKTGIRSVQSYLESIYDVSEFLSKLGSLGDRHNNPVYSIFDQFFFGPELYGKLFDKQSKFSEEGMISNDKVILSVSLLETLQKEFGKKIAVVTGRGIESIRYSLKDMMDYFDTKNSAFLEDEPRELAKPNPATLIRAIQSMESKNCLYVGDSMEDYMMAKDAAQAGHSTTFCAIVGTSTNPEDRRKLFADSGVEMILESINDIPKVLNLV

| Molecule | target or system | assay | system | setting | how to read | quantity | value |
| --- | --- | --- | --- | --- | --- | --- | --- |
| Ivermectin | GABA-A receptor; alpha-1/beta-2/gamma-2 (Rattus norvegicus, UniProt P18508+P62813+P63138) | agonist | HEK293 expressing receptor |  |  | EC50 | 1100 nM |
| bcp (Escherichia coli, UniProt P0AE52) | CC(C)(C)OO | steady-state kinetics |  | pH 7, 25 °C, apparent |  | kcat/Km | 220 M⁻¹ s⁻¹ |
| human IPO8 | PP6C (human) | co-immunoprecipitation, IP-MS | CYB5R4 knockout cells | concentration not given | relative to: CYB5R4 knockout over parental | log2 fold change | -0.44 |
| acsA D449E/I222V (Pseudomonas chlororaphis) | CCCC(=O)O | steady-state kinetics |  | pH 7 |  | kcat/Km | 1330 ± 167 M⁻¹ s⁻¹ |
| gdh N192L (Bacillus subtilis) | NC(=O)c1ccc[n+]([C@@H]2O[C@H](COP(=O)(O)OP(=O)(O)OC[C@H]3O[C@@H](n4cnc5c(N)ncnc54)[C@H](O)[C@@H]3O)[C@@H](O)[C@H]2O)c1 | steady-state kinetics |  | pH 7, 40 °C |  | kcat/Km | 15800 ± 667 M⁻¹ s⁻¹ |
| enzyme (Acinetobacter baumannii, UniProt A0A5P1UDB1) | O=C(O)c1ccc(F)cc1O | steady-state kinetics |  | pH 7.5, 37 °C, apparent |  | kcat/Km | 89.4 M⁻¹ s⁻¹ |
| B1 (enzyme L71Q/Y136L) | C=C1CC[C@@H]2C(C)(C)CCC[C@@]2(C)[C@@H]1CC/C(C)=C/COP(=O)(O)OP(=O)(O)O | steady-state kinetics |  |  |  | kcat/Km | 4000 M⁻¹ s⁻¹ |
| enzyme (UniProt P0DY30) | CC(=O)N[C@H]1[C@H](Oc2ccc([N+](=O)[O-])cc2)O[C@H](CO)[C@@H](O[C@@H]2O[C@H](CO)[C@H](O)[C@H](O)[C@H]2O)[C@@H]1O | steady-state kinetics |  | pH 6, 50 °C |  | kcat/Km | 4990 M⁻¹ s⁻¹ |
| B2 (enzyme) | O=C(O)C(=O)Cc1ccccc1 | steady-state kinetics |  |  |  | kcat/Km | 43700 M⁻¹ s⁻¹ and 25300 M⁻¹ s⁻¹ |
| B3 (enzyme) | Nc1nc2c(ncn2[C@H]2C[C@H](O)[C@@H](CO)O2)c(=O)[nH]1 | steady-state kinetics |  |  |  | kcat/Km | 37000 M⁻¹ s⁻¹ |
| B4 (human PABP4) | PP6C (human) | co-immunoprecipitation, IP-MS | CYB5R4 knockout cells | concentration not given | relative to: CYB5R4 knockout over parental | log2 fold change | -1.44 |
| B5 (enzyme S252E) | NC(=O)c1ccc[n+]([C@@H]2O[C@H](COP(=O)(O)OP(=O)(O)OC[C@H]3O[C@@H](n4cnc5c(N)ncnc54)[C@H](O)[C@@H]3O)[C@@H](O)[C@H]2O)c1 | steady-state kinetics |  | pH 7, 30 °C, apparent |  | kcat/Km | 89 ± 9 M⁻¹ s⁻¹ |
| B6 (spt) | CCCCCCCCCCCC(=O)SCCNC(=O)CCNC(=O)[C@H](O)C(C)(C)COP(=O)(O)OP(=O)(O)OC[C@H]1O[C@@H](n2cnc3c(N)ncnc32)[C@H](O)[C@@H]1OP(=O)(O)O | steady-state kinetics |  | together with: PLP |  | kcat/Km | 440 M⁻¹ s⁻¹ |
| B7 (enzyme Y414S/Y415A) | Nc1ncnc2c1ncn2[C@@H]1O[C@H](COP(=O)(O)OP(=O)(O)OP(=O)(O)O)[C@@H](O)[C@H]1O | steady-state kinetics |  | pH 8.5, 25 °C, apparent, anoxic, together with: L-Thr 10 mM |  | kcat/Km | 46 ± 20 M⁻¹ s⁻¹ |
| enzyme (Homo sapiens, UniProt Q08623) | O=c1[nH]cc([C@@H]2O[C@H](COP(=O)(O)O)[C@@H](O)[C@H]2O)c(=O)[nH]1 | steady-state kinetics |  | pH 7, 25 °C |  | kcat/Km | 783000 M⁻¹ s⁻¹ |
| bglA (Acetivibrio thermocellus, UniProt P26208) | O=[N+]([O-])c1ccc(O[C@@H]2OC[C@H](O)[C@H](O)[C@H]2O)cc1 | steady-state kinetics |  | pH 5.5, 60 °C |  | kcat/Km | 3330 ± 240 M⁻¹ s⁻¹ |
| GCAGAAUUU (ssRNA) | U2AF2 | sequencing of bound RNA | RNA | motif only |  | Kd | 2550 nM |
| enzyme (Mycosarcoma maydis, UniProt A0A0U2UYC4) | O=C(O)/C=C(\CC(=O)O)C(=O)O | steady-state kinetics |  | pH 5.5, 37 °C |  | kcat/Km | 89100 M⁻¹ s⁻¹ |
| AUUUCCCUU (ssRNA) | U2AF2 | sequencing of bound RNA | RNA | motif only |  | Kd | 2640 nM |
| B8 (enzyme K56A) | N[C@H](COP(=O)(O)O)Cc1c[nH]cn1 | steady-state kinetics |  | pH 7.8, 25 °C |  | kcat/Km | 2.8 ± 0.6 M⁻¹ s⁻¹ |

Repeated from above:
| Molecule | target or system | assay | system | setting | how to read | quantity | value |
| --- | --- | --- | --- | --- | --- | --- | --- |
| B3 (enzyme) | Nc1nc2c(ncn2[C@H]2C[C@H](O)[C@@H](CO)O2)c(=O)[nH]1 | steady-state kinetics |  |  |  | kcat/Km | 37000 M⁻¹ s⁻¹ |
| B2 (enzyme) | O=C(O)C(=O)Cc1ccccc1 | steady-state kinetics |  |  |  | kcat/Km | 43700 M⁻¹ s⁻¹ and 25300 M⁻¹ s⁻¹ |
